# Results of several laboratories.
# Each numbered part is a random draw from the data of one study; scales do not carry over between parts. Positions count from the first letter of the parent shown.

# Series 1
# Target: ABI1, truncated, D143A, DHFR fusion (Arabidopsis thaliana)
# Technique: DHFR PCA, deep sequencing
# Matrix: yeast
# Notes: methotrexate growth selection, single substitutions
# Together with: (+)-ABA 1.4 µM
# Relative to: wild-type fitted maximum
# Direction: higher = stronger binding
# Parent: PYL1, truncated, DHFR fusion (Arabidopsis thaliana); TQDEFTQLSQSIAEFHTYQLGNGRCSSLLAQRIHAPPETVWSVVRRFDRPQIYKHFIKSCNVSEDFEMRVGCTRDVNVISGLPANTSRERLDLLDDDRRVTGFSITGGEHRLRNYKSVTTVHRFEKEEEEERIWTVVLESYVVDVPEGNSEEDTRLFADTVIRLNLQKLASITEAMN; partner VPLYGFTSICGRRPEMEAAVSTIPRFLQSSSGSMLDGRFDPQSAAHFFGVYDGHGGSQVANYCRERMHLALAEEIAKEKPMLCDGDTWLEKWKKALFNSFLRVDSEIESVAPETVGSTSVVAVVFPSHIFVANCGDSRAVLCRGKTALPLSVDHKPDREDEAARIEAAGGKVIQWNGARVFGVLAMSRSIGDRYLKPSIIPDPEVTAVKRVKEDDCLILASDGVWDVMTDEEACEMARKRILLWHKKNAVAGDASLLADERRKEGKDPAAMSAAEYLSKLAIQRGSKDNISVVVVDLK
Substitution,relative binding score [%]
E129G,79.5
N61W,39.6
E4P,39.8
N114Y,-3.32
K58H,30.6
V142G,-9.18
Q7I,41.4

# Series 2
# Target: Centromere-binding protein 1, full length, His-tagged (CBF1, Saccharomyces cerevisiae, UniProt P17106, residues 1-351)
# Sequence of UniProt P17106 (whole entry, looked up): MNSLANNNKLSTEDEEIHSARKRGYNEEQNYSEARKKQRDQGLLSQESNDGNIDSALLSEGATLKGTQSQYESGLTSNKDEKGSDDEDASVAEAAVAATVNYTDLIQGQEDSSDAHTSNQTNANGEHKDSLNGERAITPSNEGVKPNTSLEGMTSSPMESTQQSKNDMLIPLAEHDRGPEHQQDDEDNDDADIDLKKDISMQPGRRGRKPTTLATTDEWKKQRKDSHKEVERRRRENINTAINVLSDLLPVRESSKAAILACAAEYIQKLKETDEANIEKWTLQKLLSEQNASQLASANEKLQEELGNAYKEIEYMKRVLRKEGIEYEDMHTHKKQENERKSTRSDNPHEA
# Technique: competition protein-binding microarray
# Molecule type: double-stranded DNA, one strand shown
# Matrix: in vitro
# Concentration: 2 µM
# Notes: whole 60-bp probe, lowest competitor level
# Together with: Pho4 competitor, 0.05 µM
# Direction: higher = stronger binding
# Constant ends, left off below: … GTCTTGATTCGCTTGACGCTGCTG
Sequence,fluorescence intensity [a.u.]
AACTTCGAAATTGGGAGCGTGGGACCAGAAACTTCC,75.3
CGCTTGCCTTTAATCCTCGTGCCGATCCACAAAATC,122
CTTTCCCGATCTTTTCACGTGCAATTAGCACATTTG,1290
AGCAGTTTGAATTGTCATGTGCAAACAACCAGCAAT,313
GACACATCGCTAGAAAAATTGGCATTACTAGAAAGC,82.3
CGTCCTAGCGATTGAACCGTGGGTGCCATGAGGAAG,55.3
GCGCAATTCGCCAAGTTCGTGACGGAATTCTTCGGG,77.4

# Series 3
# Target: Histone acetyltransferase KAT6A, winged helix 1, GST fusion (KAT6A, Homo sapiens, UniProt Q92794, residues 1-85)
# Technique: protein binding microarray
# Molecule type: double-stranded DNA, one strand shown
# Matrix: in vitro
# Concentration: not given
# Notes: 8-mer, flanks averaged, mean of 2 arrays, mostly near background
# Relative to: not given
# Direction: higher = stronger binding
# Construct (chain): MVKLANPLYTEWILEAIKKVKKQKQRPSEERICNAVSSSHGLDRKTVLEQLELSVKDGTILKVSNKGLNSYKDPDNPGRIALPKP
Sequence,E-score
CCTGGGGC,-0.0597
AACATTGG,-0.275
TGAGACCA,-0.225
AGTACCGC,0.341
GAAGACAC,0.0467
ACATGTTC,-0.103
CCGCGCAC,0.398
AATGTCCA,-0.277
CTTAATCC,-0.0953
CATGAGAA,-0.0868
ATGCAGAA,-0.16

# Single results of other studies
Substance,target,assay,system,setting,how to read,quantity,result
"PhoQ, residues 284 288 289 292 302 303 AGGCYF","PhoP, residues 12 14 15 18 19 VQGLL (Escherichia coli, UniProt P23836)","Sort-seq, refers to: YFP reporter",E. coli,"PhoQ-PhoP variant library, together with: 10 µM Mg2+","relative to: high Mg2+ state, higher = stronger signaling",fold induction,3.35

# Repeated from above (series 1):
Substitution,relative binding score [%]
E4P,39.8
N114Y,-3.32
